# Measurements from different studies.
# Protocols differ between the studies behind these lines.
# tmk: Thymidylate kinase (tmk, Mycobacterium tuberculosis, UniProt P9WKE1)
# Htr2a: 5-hydroxytryptamine receptor 2A (Htr2a, Mus musculus, UniProt P35363)
# Sequence of UniProt P35363 (whole entry, looked up): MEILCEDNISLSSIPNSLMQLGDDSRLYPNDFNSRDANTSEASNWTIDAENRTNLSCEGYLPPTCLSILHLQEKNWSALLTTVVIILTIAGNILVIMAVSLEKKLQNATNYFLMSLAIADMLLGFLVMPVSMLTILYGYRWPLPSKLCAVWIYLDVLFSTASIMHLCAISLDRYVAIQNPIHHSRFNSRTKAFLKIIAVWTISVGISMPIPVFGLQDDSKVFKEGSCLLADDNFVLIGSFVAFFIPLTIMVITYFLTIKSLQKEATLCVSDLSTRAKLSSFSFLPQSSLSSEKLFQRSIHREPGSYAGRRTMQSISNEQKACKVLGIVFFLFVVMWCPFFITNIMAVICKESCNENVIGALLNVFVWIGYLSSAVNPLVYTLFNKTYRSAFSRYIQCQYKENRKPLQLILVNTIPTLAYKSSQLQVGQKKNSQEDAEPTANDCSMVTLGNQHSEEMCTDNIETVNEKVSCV
# CNR1: Cannabinoid receptor 1 (CNR1, Homo sapiens, UniProt P21554)
# Sequence of UniProt P21554 (whole entry, looked up): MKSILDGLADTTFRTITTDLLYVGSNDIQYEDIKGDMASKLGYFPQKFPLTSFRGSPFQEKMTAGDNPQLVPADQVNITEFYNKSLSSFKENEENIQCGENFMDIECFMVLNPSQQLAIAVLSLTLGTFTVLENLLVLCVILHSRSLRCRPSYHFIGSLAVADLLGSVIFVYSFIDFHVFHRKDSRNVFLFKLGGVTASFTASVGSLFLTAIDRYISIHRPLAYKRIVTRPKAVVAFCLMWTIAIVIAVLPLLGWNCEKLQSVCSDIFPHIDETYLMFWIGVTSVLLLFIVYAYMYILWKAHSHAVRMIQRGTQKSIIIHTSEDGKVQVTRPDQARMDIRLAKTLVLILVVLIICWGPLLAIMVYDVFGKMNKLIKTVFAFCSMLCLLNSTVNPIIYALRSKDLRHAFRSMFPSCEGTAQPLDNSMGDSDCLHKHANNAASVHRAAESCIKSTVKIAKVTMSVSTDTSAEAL
# Htr2c: 5-hydroxytryptamine receptor 2C (Htr2c, Mus musculus, UniProt P34968)
# Sequence of UniProt P34968 (whole entry, looked up): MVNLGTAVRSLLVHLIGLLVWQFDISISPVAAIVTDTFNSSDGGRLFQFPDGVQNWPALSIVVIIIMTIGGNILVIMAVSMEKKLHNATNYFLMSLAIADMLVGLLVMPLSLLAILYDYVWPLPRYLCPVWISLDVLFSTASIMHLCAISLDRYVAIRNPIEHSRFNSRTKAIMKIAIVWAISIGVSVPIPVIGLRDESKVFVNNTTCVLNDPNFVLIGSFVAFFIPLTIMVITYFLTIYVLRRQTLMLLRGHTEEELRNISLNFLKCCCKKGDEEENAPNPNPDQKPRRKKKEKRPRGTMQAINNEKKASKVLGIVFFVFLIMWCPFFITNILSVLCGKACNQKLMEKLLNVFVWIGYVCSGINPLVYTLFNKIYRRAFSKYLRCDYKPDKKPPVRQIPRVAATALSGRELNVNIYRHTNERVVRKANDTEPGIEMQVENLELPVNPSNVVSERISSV
# Sequence of UniProt Q8N6T7 (whole entry, looked up): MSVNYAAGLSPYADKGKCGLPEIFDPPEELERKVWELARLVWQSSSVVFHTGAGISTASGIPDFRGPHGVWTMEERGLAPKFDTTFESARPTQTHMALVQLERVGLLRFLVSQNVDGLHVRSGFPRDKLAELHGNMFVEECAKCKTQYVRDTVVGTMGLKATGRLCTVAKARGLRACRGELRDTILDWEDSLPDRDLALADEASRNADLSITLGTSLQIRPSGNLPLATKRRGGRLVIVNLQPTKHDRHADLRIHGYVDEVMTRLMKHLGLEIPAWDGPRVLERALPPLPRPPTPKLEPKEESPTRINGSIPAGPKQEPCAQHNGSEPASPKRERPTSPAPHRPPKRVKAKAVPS
# Sequence of UniProt P49841 (whole entry, looked up): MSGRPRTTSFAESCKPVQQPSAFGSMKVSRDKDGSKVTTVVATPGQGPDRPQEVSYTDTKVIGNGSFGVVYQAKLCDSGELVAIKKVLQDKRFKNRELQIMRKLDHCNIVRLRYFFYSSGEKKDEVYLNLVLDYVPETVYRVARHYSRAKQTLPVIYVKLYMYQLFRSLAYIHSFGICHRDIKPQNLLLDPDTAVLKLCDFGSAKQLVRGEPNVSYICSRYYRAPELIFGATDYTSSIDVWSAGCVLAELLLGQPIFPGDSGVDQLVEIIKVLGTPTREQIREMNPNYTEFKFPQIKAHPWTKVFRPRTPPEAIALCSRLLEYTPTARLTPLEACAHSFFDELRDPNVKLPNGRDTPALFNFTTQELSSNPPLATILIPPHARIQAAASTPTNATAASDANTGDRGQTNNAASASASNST
# Sequence of UniProt O75582 (whole entry, looked up): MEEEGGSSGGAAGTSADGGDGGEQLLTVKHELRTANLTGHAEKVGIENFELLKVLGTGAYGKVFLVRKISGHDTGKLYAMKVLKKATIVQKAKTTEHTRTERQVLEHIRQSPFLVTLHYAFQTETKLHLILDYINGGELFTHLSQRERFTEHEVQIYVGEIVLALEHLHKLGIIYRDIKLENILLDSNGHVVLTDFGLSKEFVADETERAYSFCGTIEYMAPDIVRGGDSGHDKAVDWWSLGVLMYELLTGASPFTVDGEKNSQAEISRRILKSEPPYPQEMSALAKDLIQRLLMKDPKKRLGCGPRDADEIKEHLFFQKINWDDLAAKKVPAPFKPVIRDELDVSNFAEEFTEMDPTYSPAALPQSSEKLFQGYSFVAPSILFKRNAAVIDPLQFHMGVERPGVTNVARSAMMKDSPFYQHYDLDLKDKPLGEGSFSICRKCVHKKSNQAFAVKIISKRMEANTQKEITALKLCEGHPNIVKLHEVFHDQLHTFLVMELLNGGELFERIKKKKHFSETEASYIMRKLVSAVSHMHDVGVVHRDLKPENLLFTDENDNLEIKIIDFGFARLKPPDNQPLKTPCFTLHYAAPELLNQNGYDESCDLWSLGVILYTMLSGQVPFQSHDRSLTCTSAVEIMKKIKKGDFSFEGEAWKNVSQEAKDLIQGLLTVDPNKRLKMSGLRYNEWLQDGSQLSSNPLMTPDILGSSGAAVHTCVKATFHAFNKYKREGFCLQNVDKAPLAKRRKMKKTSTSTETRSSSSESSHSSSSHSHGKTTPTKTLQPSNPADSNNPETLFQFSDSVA
# Sequence of UniProt O75385 (whole entry, looked up): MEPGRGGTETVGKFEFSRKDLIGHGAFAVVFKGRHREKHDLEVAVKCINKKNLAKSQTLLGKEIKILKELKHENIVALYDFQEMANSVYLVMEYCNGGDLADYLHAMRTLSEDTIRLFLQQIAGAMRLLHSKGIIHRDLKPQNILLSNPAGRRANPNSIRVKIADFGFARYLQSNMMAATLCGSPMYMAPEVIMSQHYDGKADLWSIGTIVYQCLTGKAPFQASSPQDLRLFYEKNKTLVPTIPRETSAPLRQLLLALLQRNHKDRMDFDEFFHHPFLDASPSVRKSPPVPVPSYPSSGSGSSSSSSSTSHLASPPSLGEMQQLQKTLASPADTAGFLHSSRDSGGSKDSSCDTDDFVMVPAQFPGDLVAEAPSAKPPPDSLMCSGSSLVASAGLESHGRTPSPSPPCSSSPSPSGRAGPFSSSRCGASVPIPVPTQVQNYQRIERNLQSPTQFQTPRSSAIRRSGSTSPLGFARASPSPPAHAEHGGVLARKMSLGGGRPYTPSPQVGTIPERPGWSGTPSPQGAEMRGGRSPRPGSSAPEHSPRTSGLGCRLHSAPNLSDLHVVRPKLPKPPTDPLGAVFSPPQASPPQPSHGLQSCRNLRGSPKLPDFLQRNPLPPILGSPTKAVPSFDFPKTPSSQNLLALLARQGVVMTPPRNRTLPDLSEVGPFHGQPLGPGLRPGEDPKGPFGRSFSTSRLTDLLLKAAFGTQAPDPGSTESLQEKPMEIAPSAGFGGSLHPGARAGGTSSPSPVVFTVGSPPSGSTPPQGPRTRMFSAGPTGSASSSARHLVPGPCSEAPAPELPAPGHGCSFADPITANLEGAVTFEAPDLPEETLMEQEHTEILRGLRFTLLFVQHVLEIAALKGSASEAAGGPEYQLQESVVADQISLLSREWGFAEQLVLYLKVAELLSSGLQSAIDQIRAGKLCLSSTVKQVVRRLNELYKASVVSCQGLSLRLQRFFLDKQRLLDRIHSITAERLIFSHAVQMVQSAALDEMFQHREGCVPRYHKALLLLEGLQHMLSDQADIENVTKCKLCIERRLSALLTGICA
# Sequence of UniProt Q8NEB9 (whole entry, looked up): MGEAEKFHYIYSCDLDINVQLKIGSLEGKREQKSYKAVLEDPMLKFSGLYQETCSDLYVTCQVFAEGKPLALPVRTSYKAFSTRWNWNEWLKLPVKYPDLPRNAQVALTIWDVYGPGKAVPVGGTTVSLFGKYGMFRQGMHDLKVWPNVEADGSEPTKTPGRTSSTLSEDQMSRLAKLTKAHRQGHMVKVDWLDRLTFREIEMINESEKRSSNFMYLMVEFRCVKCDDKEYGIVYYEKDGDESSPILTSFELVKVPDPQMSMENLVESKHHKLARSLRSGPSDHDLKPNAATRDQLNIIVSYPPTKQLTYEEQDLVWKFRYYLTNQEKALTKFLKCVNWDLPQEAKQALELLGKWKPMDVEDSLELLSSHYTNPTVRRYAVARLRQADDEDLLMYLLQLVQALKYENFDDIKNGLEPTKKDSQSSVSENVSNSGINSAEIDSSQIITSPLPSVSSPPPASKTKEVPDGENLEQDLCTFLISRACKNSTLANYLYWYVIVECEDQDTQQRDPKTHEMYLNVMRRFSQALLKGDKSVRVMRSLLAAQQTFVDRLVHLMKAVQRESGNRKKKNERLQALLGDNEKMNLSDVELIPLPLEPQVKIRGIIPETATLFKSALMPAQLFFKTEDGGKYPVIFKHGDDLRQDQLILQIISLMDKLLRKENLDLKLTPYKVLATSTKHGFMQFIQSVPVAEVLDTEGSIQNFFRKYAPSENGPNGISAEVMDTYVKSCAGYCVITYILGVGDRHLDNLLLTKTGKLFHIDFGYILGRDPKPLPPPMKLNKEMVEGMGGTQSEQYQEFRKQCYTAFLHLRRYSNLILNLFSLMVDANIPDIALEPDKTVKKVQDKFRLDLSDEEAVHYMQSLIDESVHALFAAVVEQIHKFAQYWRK
SMILES,target or system,test,test system,conditions,endpoint,value
CC(N)Cc1ccc(O)cc1 (centres unmarked),"YARS1 (Homo sapiens, UniProt P54577)","enzyme activity, inhibitor",,100 µM,remaining activity,78.4%
CCOC(=O)C1=C(C)NC(=O)NC1c1ccc([N+](=O)[O-])o1 (centres unmarked),tmk,"enzyme activity, inhibitor, absorbance",,0.1 µg/mL,inhibition,45.4%
Cc1nn(C)cc1-c1nc2c(N3CCN(Cc4ccc(Cl)cc4)CC3)c(Cl)cnc2[nH]1,"ULK1 (Homo sapiens, UniProt O75385)","binding, competition with immobilised ligand",,1 µM,remaining binding,78%
CCOC(=O)C1=C(C)NC(=NN=c2[nH]c3ccccc3[nH]c2=O)NC1c1ccc(F)cc1 (centres unmarked),tmk,"enzyme activity, inhibitor, absorbance",,0.01 µg/mL,inhibition,35.3%
COC1=C[C@@H]2[C@@H]3Cc4ccc(OC)c(O)c4[C@]2(CCN3C)CC1=O,"USP51 (Homo sapiens, UniProt Q70EK9)","enzyme activity, inhibitor",,5 µM,inhibition,5%
C=CC(=O)N1CCC(COCC(=O)N2CCN(c3nc(-c4cnc(N)nc4C(F)F)nc(N4CCOC[C@@H]4C)n3)CC2)CC1,"pknB (Mycobacterium tuberculosis, UniProt P9WI81)","binding, competition with immobilised ligand",,1 µM,remaining binding,91%
CC1=C(C(N)=O)C(c2ccc([N+](=O)[O-])o2)NC(=S)N1 (centres unmarked),tmk,"enzyme activity, inhibitor, absorbance",,10 µg/mL,inhibition,87.5%
COc1cc(CCNC(C)c2ccccc2O)c(OC)cc1C#N (centres unmarked),Htr2a,"G protein activation, agonist, BRET",,,Emax,92%
C=CCc1ccc2c(c1)OCO2,"GSK3B (Homo sapiens, UniProt P49841)","enzyme activity, inhibitor, ADP detection",,100 µM,inhibition,19.4%
COC(=O)[C@@H](NC(=O)c1nn(Cc2ccc(F)cc2)c2ccccc12)C(C)C,CNR1,"β-arrestin recruitment, agonist",,,Emax,103%
[2H]c1c([2H])c([C@]2([2H])CCCN2C(=O)C(C)(C)Oc2ccc3cn[nH]c3c2)c([2H])c([2H])c1C([2H])([2H])[2H],"PIK3C3 (Homo sapiens, UniProt Q8NEB9)","binding, competition with immobilised ligand",,1 µM,remaining binding,95%
COC(=O)[C@@H](NC(=O)c1nn(Cc2ccc(F)cc2)c2ccccc12)C(C)(C)C,CNR1,"β-arrestin recruitment, agonist, BRET",,,Emax,178%
CC1=C(C(N)=O)C(c2ccc([N+](=O)[O-])o2)NC(=O)N1 (centres unmarked),tmk,"enzyme activity, inhibitor, absorbance",,0.1 µg/mL,inhibition,54.7%
CCC(NCCc1cc(OC)c(C#N)cc1OC)c1ccccc1O (centres unmarked),Htr2c,"G protein activation, agonist, BRET",,,Emax,86%
Cc1noc(-c2cccs2)c1C(=O)NC(C)c1cccc2ccccc12 (centres unmarked),"PFF0160c (Plasmodium falciparum, UniProt Q08210)","enzyme activity, inhibitor, absorbance",,,IC50,424 nM
COc1cc(CCNC(C)c2ccccc2O)c(OC)cc1Br (centres unmarked),Htr2a,"G protein activation, agonist, BRET",,,Emax,98%
N#Cc1ccc(C(=O)NOCc2ccc(C(F)(F)F)cc2)cc1,"SIRT6 (Homo sapiens, UniProt Q8N6T7)","enzyme activity, inhibitor, fluorescence",,100 µM,inhibition,82.5%
COc1cc(CCN)c(OC)cc1C#N,Htr2c,"G protein activation, agonist, BRET",,,Emax,91%
CC(C)C(NC(=O)Cc1cccc2ccccc12)C(=O)Nc1cccc(C#N)c1 (centres unmarked),"PFF0160c (Plasmodium falciparum, UniProt Q08210, E182D)","enzyme activity, inhibitor, absorbance",,,IC50,> 10000 nM
Nc1ncc(-c2nc(N3CCOCC3)nc(N3CCOCC3)n2)c(C(F)F)n1,"Ribosomal protein S6 kinase alpha-5, C-terminal kinase domain (RPS6KA5, Homo sapiens, UniProt O75582)","binding, competition with immobilised ligand",,10 µM,remaining binding,88%
CN[C@@]1(c2ccccc2Cl)CCCCC1=O,"MAPK1 (Homo sapiens, UniProt P28482)","enzyme activity, inhibitor",,30 µM,inhibition,2%
COC(=O)c1cc(-c2cccc(NC(=O)Nc3ccc(Cl)c(C(F)(F)F)c3)c2)on1,Pseudomonas aeruginosa,"microbial growth, broth dilution",ATCC27853,,MIC,> 64 µg/mL
CCCCCOc1ccc(C(=O)c2cccc3ccccc23)c2ccccc12,CNR1,"β-arrestin recruitment, agonist, BRET",,,Emax,175%

# A few entries again:
SMILES,target or system,test,test system,conditions,endpoint,value
Cc1noc(-c2cccs2)c1C(=O)NC(C)c1cccc2ccccc12 (centres unmarked),"PFF0160c (Plasmodium falciparum, UniProt Q08210)","enzyme activity, inhibitor, absorbance",,,IC50,424 nM
COc1cc(CCNC(C)c2ccccc2O)c(OC)cc1Br (centres unmarked),Htr2a,"G protein activation, agonist, BRET",,,Emax,98%
N#Cc1ccc(C(=O)NOCc2ccc(C(F)(F)F)cc2)cc1,"SIRT6 (Homo sapiens, UniProt Q8N6T7)","enzyme activity, inhibitor, fluorescence",,100 µM,inhibition,82.5%
